Results pooled from the literature.
CDK17: Cyclin-dependent kinase 17 (CDK17, Homo sapiens, UniProt Q00537)
CDK17 with cyclin Y: Cyclin-dependent kinase 17, with cyclin Y (CDK17, Homo sapiens, UniProt Q00537)

Structure (SMILES) | target | test | test system | setting | scale | endpoint | result
C=CC(=O)N1CCCC(n2c(=O)c3ncccc3n(Cc3ccc(Oc4ccccc4)cc3)c2=O)C1 (stereo not shown) | CDK17 | cell-free assay, competition with immobilised ligand |  | 1 µM |  | remaining binding | 92%
COc1cc(Nc2nccc(-c3cnn4nc(OC)ccc34)n2)cc(C(F)(F)F)c1 | CDK17 | binding, competition with immobilised ligand |  | 1 µM |  | remaining binding | 82%
CCn1cc(C(=O)O)c(=O)c2c(N)c(F)c(NC3CCCCC3)cc21 | CDK17 with cyclin Y | kinase activity |  | 0.1 µM, together with: ATP at Km |  | inhibition | 27.6%
Nc1ncc2c(n1)-c1c([nH]c3ccc(C4=CCOCC4)cc13)CCC2 | CDK17 | binding, competition with immobilised ligand |  | 1 µM |  | remaining binding | 100%
CNC(=O)C1CCN(c2cc(C)c(F)cc2NC(=O)c2ccc(-c3cc(O)ccc3C)c(C)c2)CC1 | CDK17 | binding, competition with immobilised ligand |  | 1 µM |  | remaining binding | 98%
C=CC(=O)N1Cc2nc(-c3cc(-c4cc(Cl)cnc4Cl)c(F)cc3F)n(-c3ccncn3)c2C1 | CDK17 with cyclin Y | cell-free assay, inhibitor |  | 1 µM |  | inhibition | 2.1%
C=CC(=O)N1CCc2ccc(-n3c(=O)ccc4cnc5ccc(-c6cnn(C)c6)cc5c43)cc21 | CDK17 | KINOMEscan |  | 1 µM | baseline: DMSO control | remaining binding | 100%
Cc1cnc2nc1Nc1cccc(c1)COC/C=C/COCc1cc(ccc1OCCN1CCOCC1)N2 | CDK17 | binding, competition with immobilised ligand |  | 0.1 µM |  | remaining binding | 100%
COc1cc(Nc2nc(C)cc(-c3cnn4nc(OC)ccc34)n2)cc(C(F)(F)F)c1 | CDK17 | inhibitor |  | 1 µM, PCTK2 | baseline: control | remaining activity | 100%
CCN1CCN(Cc2ccc(C(=O)Nc3ccc(C)c(NCc4cnc5[nH]ccc5c4OC)c3)cc2C(F)(F)F)CC1 | CDK17 | binding, competition with immobilised ligand |  | 1 µM |  | remaining binding | 100%
Cc1ccc(-c2c(/C=C(\C#N)C(=O)NC(C)C)n(CCCO)c3ncnc(N)c23)cc1 | CDK17 | cell-free assay, competition with immobilised ligand |  | 1 µM |  | remaining binding | 97%
COc1c(Cl)cccc1Nc1c(-c2ccncc2C#C[C@@]2(C)CCCN2C(=O)/C=C/CN(C)C)[nH]c2c1C(=O)NCC2 | CDK17 | binding, competition with immobilised ligand |  | 3 µM |  | remaining binding | 100%
CNC1C[S+]2CC[S+]3CC[S+](C1)[Ru-4]321([N]=C=S)[n]2c3ccc(OC)cc3c3c4c(c5cc(F)c[n+]1c5c32)C(=O)NC4=O (stereo not shown) | CDK17 | KinomeScan |  | 0.1 µM | baseline: untreated | remaining binding | 100%
Nc1ncc(-c2cc(-c3cnn(CC(F)(F)F)c3)ncc2F)nc1C(=O)NC1CNCC(F)C1 (stereo not shown) | CDK17 with cyclin Y | enzyme activity |  | 1 µM | baseline: DMSO control | remaining activity | 86.1%
CS(=O)(=O)Nc1cccc(-c2csc3cnc(Nc4ccc(N5CCN(CCCCCOc6cccc7c6C(=O)N(C6CCC(=O)NC6=O)C7=O)CC5)cc4)nc23)c1 (stereo not shown) | CDK17 | probe labelling, inhibitor, KiNativ chemoproteomics | MOLT-4 | 1 µM |  | inhibition | 58.7%
CN1C[C@@H](c2c[nH]c3cc(Br)ccc23)NC[C@@H]1c1c[nH]c2cc(Br)ccc12 | Cyclin-dependent kinase 17, with p35 (CDK17, Homo sapiens, UniProt Q00537) | enzyme activity, inhibitor |  | 10 µM |  | remaining activity | 110%
CC(C)=CC1OC(C)(C)C2C=C3C(=O)C(Cl)=CC(O)C3C3C(O)C4OC4C(=O)C132 (stereo not shown) | CDK17 | cell-free assay, competition with immobilised ligand |  | 10 µM |  | remaining binding | 79%
CN1CCN(Cc2ccc(-c3ccc(CO[C@H]4CCC[C@@H]4NC(=O)c4cc(-c5cnn(C)c5)cnc4N)cc3)cc2)CC1 | CDK17 with cyclin Y | enzyme activity, inhibitor |  | 0.1 µM |  | inhibition | 18%
O=C(Cc1ccc(OCc2ccccc2)cc1)NC1(C(=O)O)CCN(C(=O)c2ccc(-c3cccc(Cl)c3)cc2)CC1 | CDK17 with cyclin Y | enzyme activity, inhibitor |  | 10 µM |  | activity vs control | 125%

Repeated from above:
Structure (SMILES) | target | test | test system | setting | scale | endpoint | result
Nc1ncc2c(n1)-c1c([nH]c3ccc(C4=CCOCC4)cc13)CCC2 | CDK17 | binding, competition with immobilised ligand |  | 1 µM |  | remaining binding | 100%
CNC(=O)C1CCN(c2cc(C)c(F)cc2NC(=O)c2ccc(-c3cc(O)ccc3C)c(C)c2)CC1 | CDK17 | binding, competition with immobilised ligand |  | 1 µM |  | remaining binding | 98%
C=CC(=O)N1Cc2nc(-c3cc(-c4cc(Cl)cnc4Cl)c(F)cc3F)n(-c3ccncn3)c2C1 | CDK17 with cyclin Y | cell-free assay, inhibitor |  | 1 µM |  | inhibition | 2.1%
